Assay results from different studies.
Each line is one published result; not all experiments were run side by side.
Target: Cyclin-dependent kinase 19 (CDK19, Homo sapiens, UniProt Q9BWU1)
Sequence of UniProt Q9BWU1 (whole entry, looked up): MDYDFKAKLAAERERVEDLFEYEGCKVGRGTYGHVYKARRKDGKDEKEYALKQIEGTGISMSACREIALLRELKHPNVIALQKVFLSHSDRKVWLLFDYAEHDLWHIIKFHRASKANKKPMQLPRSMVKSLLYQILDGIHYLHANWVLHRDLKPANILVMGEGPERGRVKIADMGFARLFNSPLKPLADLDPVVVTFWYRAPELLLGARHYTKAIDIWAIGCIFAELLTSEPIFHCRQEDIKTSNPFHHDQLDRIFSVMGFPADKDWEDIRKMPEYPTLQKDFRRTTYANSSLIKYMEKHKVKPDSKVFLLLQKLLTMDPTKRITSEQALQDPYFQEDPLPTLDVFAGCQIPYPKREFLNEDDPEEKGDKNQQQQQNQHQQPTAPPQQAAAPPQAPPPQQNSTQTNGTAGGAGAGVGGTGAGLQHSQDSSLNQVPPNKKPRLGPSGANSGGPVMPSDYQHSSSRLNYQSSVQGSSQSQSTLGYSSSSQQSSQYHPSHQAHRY

Structure (SMILES) | mode | technique | concentration | baseline | direction | remaining binding [%]
CNC(=O)[C@@H]1CC[C@@H](n2c(-c3ccc4cnccc4c3)nc3ccc(C(=O)NCc4cccc(C(N)=O)c4)cc32)C1 |  | KINOMEscan | 1 µM |  |  | 91
C[C@]1(O)CCCN(c2nc(Nc3ccc(S(=O)(=O)N[C@H]4CC[C@H](CN5CCN(c6ccc(C7CCC(=O)NC7=O)cc6F)CC5)CC4)cc3F)ncc2C(F)(F)F)C1 (some centres unmarked) |  | KINOMEscan | 1 µM |  |  | 100
C[C@@H](c1ccc(-n2cnc3c(N)ncnc32)cc1)N1CCc2nn(C)c(Cc3ccccc3)c2C1=O |  | KINOMEscan | 0.1 µM | DMSO control |  | 35
O=C(Nc1c[nH]nc1C(=O)NC1CCNCC1)c1cc(F)cc(F)c1 |  | scanMAX | 1 µM | untreated |  | 100
O=C(NCCCN1CCOCC1)c1ccc(Nc2ncc(Cl)c(-c3ccc(Cl)s3)n2)cc1 | binding | KINOMEscan competition binding | 1 µM | DMSO control |  | 100
C[C@]1(O)CCCN(c2nc(Nc3ccc(S(=O)(=O)N[C@H]4CC[C@H](CN5CCN(c6ccc(C7CCC(=O)NC7=O)cc6F)CC5)CC4)cc3Cl)ncc2C(F)(F)F)C1 (some centres unmarked) |  | KINOMEscan | 1 µM |  |  | 80
C=CC(=O)N1CCC(C(=O)NCC(=O)N2CCN(c3nc(-c4cnc(N)nc4C(F)F)nc(N4CCOCC4)n3)CC2)CC1 |  | KINOMEscan | 1 µM |  |  | 99
O=C(NCCCN1CCOCC1)c1ccc(Nc2nccc(-c3cc4ccccc4s3)n2)cc1 | binding | KINOMEscan competition binding | 1 µM | DMSO control |  | 96
N#Cc1ccc(NC(=O)Nc2ccccc2)cc1 |  | KINOMEscan competition binding | 25 µM | DMSO control | lower is stronger binding | 80
COc1cnc(Nc2cccc(S(N)(=O)=O)c2)nc1N1CCN(c2ccccc2)C(=O)C1 |  | KINOMEscan | 1 µM |  |  | 98
C1=C/COCc2cc(ccc2OCCN2CCCC2)Nc2nccc(n2)-c2cccc(c2)COC/1 |  |  | 0.1 µM | DMSO control |  | 97
FC(F)(F)Oc1cccc(-c2cnc3ccc(-c4ccncc4)nn23)c1 |  | KINOMEscan competition binding | 5 µM |  |  | 5.5
Cc1cnc(Nc2ccc(C(=O)N3CCC(N4CCCC4)CC3)cc2)nc1-c1cc2ccccc2s1 | binding | KINOMEscan competition binding | 1 µM | DMSO control |  | 100
Cc1cc([C@@H](C)Nc2ccccc2C(=O)O)c2nc(N3CCC(F)(F)CC3)c(C#N)c(=O)n2c1 |  | KINOMEscan | 10 µM | control |  | 79

Repeated from above:
Structure (SMILES) | mode | technique | concentration | baseline | direction | remaining binding [%]
C[C@]1(O)CCCN(c2nc(Nc3ccc(S(=O)(=O)N[C@H]4CC[C@H](CN5CCN(c6ccc(C7CCC(=O)NC7=O)cc6F)CC5)CC4)cc3F)ncc2C(F)(F)F)C1 (some centres unmarked) |  | KINOMEscan | 1 µM |  |  | 100
C1=C/COCc2cc(ccc2OCCN2CCCC2)Nc2nccc(n2)-c2cccc(c2)COC/1 |  |  | 0.1 µM | DMSO control |  | 97
